Published values from different studies.
Numbered parts are unrelated; each lists some results of a single study. Changes are numbered by the printed parent chain.

Series 1
Target: CCND2, cyclin fold, Cln2 fusion (human)
Method: yeast growth competition, sequencing
Medium: yeast
Setting: weak parent motif
Relative to: not given
Direction: higher = stronger binding
Starting sequence: CDC6 docking peptide (human); TLKGRRLVFDNQL; partner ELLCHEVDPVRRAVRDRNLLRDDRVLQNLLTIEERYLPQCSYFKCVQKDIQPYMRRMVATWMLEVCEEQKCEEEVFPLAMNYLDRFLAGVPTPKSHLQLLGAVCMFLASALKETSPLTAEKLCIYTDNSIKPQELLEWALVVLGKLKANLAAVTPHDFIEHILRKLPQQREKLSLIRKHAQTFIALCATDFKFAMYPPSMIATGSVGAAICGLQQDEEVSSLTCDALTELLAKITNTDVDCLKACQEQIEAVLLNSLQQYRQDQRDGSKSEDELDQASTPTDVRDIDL
Variant | normalised enrichment score
K3Y | 0.438
R5M | 0.156
N11Y | 0.529
T1P | 0.125
F9P | 0.395
L13C | 0.325
T1A | 0.473
Q12V | 0.38
V8F | -0.174
D10H | -0.189
L7Q | 0.615
F9C | -0.224
L7W | 0.336
T1Y | 0.0673
G4S | -0.398
K3N | 0.0997
Q12D | 0.74

Series 2
Target: Max-binding protein MNT, bHLH-zipper, MAX partner unstated (MNT, Homo sapiens, UniProt Q99583, residues 220-300)
Method: protein-binding microarray
Molecule type: double-stranded DNA, one strand shown
Medium: in vitro
Concentration: not given
Setting: k-mer, scored over probes, only values ≥0.25
Direction: higher = stronger binding
Construct (chain): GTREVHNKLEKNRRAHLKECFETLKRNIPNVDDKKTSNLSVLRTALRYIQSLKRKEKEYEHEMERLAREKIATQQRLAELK
Sequence | E-score
ACATGGGA | 0.316
CGTGACAA | 0.331
CGTGGACC | 0.282
ATGCGTGG | 0.354
TCCCCACA | 0.294
ACGTGGGC | 0.443
AGGTCATG | 0.251
ACGTGTCC | 0.391
AACACACG | 0.311
CCCGCCCA | 0.422
CATCCACG | 0.321
GTGGCACA | 0.291
CGGTGCAC | 0.259
CACATGAA | 0.323
TGCGCACA | 0.317
ACCACGCG | 0.472
CCCGCCGC | 0.312
AGACCCCA | 0.32
TGCGTCCA | 0.277
TCGCCCCA | 0.313
AAACATGC | 0.367
CATGCGCA | 0.411
GTTTACGA | 0.272

Series 3
Target: Ras GTPase-activating protein-binding protein 1, C-terminal RGG region (G3BP1, Homo sapiens, UniProt Q13283)
Sequence of UniProt Q13283 (whole entry, looked up): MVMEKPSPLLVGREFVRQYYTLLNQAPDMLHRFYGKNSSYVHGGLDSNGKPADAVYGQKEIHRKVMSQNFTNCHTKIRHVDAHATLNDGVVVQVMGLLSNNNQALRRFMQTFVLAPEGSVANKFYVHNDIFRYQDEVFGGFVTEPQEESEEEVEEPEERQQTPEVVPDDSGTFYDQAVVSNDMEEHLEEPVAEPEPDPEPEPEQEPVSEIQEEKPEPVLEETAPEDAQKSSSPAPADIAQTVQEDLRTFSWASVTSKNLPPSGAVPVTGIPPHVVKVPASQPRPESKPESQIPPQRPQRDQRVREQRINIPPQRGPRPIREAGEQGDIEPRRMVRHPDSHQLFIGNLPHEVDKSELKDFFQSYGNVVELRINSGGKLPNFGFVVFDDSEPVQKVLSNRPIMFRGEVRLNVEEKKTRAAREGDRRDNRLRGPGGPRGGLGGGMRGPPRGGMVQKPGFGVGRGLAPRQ
Method: RNA Bind-n-Seq
Molecule type: RNA
Medium: in vitro
Concentration: 1 µM
Setting: whole 134-nt RNA, ends assumed
With: 150 mM KCl
Relative to: input library
Direction: higher = stronger binding
Sequence | log2 enrichment
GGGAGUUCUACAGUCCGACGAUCUCCUGUGCUACACAUCGUAUGUACCGAAUCGGGAAAAAAAGGGUUUGGGUUUUUUUGGGAAAGUAUUAUGUUACGCCGUUCGGAUCUGCAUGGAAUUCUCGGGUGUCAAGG | -0.292
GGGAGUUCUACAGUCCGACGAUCGUCCUGUGCUACACAUCGUAUGUACCGAAUCGGGGUGGGGAAAAAAAGGGGAAAGGGGAAAGUAUUAUGUUACGCCGUUCGGAUCUGCACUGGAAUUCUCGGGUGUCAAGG | 2.44
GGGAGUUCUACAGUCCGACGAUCCCUCAAGUCCUGUGCUACACAUCGUAUGUACCGAAUCGGGGUGGGGUGGUGGGAAAGUAUUAUGUUACGCCGUUCGGAUCUGCACUUCCAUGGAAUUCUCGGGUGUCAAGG | 0.658
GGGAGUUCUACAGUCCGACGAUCCACAGACAACACGCACCCACACAGACACAGAGGGAAGGGGUUGGGAUGGGGACAGGGUGCACAACAGGGCGGGGUAGGACCCCAGCCCCUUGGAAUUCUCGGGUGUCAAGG | -0.408
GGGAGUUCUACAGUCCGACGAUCUGGCCCUGGUGGCAUGCGGGGAGCAAGAGGUGGCCUCAUGGAUCGUGGUGGUCCCGGUGGAAUGUUCAGAGGUGGCCGUGGUGGAGACAGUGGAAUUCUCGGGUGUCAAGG | 2.27
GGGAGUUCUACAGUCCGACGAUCUCAAGUCCUGUGCUACACAUCGUAUGUACCGAAUCGGGCCCGGCCCGGCCCGGGGAAAGUAUUAUGUUACGCCGUUCGGAUCUGCACUUCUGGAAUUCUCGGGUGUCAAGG | -1.77
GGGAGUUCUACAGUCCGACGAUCUAACUUUAGAGGAGGAUCUGAUGGAUAUGGCAGUGGACGUGGAUUUGGGGAUGGCUAUAAGGGGUAUGGAGGAGGACCUGGAGGUGGCAAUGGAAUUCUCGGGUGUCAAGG | -0.653
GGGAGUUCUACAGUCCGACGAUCUCAGGUCCUUAAGUACCUUCGUAUUACUUUUAGCAGGAAAAACGGCAUGUUUUGCAUCUGGUGUGCAAUGUGAAGAGUCCUUCAAAAAUGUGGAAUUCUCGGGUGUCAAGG | -0.581
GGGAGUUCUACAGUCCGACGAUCUGGGAGGUGGAUUUUGUUUAUUUUUUUAGCUCAUUUCCAGGGGUGGGAAUUUUUUUUUAAUAUGUCUCAUGAAUAAAGUUGUUUUUGAAAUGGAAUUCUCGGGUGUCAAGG | 2.54

Series 4
Target: UBE2J2 UBC core domain (UniProt Q8N2K1)
Method: yeast two-hybrid
Medium: yeast
Setting: mostly zero background
Relative to: not given
Direction: higher = stronger interaction
B1: RFPL2 RING domain (UniProt O75678); chain MAALFQEASSCPVCSDYLEKPMSLECGCAVCLKCINSLQKEPHGEDLLCCCSSMVSRKNKIRR
B2: RNF149 RING domain (UniProt Q8NC42); chain EKGIDVDAENCAVCIENFKVKDIIRILPCKHIFHRICIDPWLLDHRTCPMCKLDVIKALGYW
B3: TRIM52 RING domain (UniProt Q96A61); chain PMQTLQEEAVCAICLDYFKDPVSISCGHNFCRGCVTQLWSKEDEEDQNEEEDEWEEEEDEEAV
B4: PHF7 RING domain (UniProt Q9BWX1); chain IQHGHVGEESCILCCEDLSQQSVENIQSPCCSQAIYHRKCIQKYAHTSAKHFFKCPQCNNRKEFPQEML
B5: TRIM38 RING domain (UniProt O00635); chain STKKMMEEATCSICLSLMTNPVSINCGHSYCHLCITDFFKNPSQKQLRQETFCCPQCRAPFHMDSLRP
B6: TRIM55 RING domain (UniProt Q9BYV6); chain TMDNLEKQLICPICLEMFTKPVVILPCQHNLCRKCASDIFQASNPYLPTRGGTTMASGGRFRCPSCRHEVVLDRHG
B7: PEX2 RING domain (UniProt P28328); chain DNTLATSGKECALCGEWPTMPHTIGCEHIFCYFCAKSSFLFDVYFTCPKCGTEVHSLQPLK
B8: NSMCE1 RING domain (UniProt Q8WV22); chain RETYPDAVKICNICHSLLIQGQSCETCGIRMHLPCVAKYFQSNAEPRCPHCNDYWPHEIPKV
B9: RNF175 RING domain (UniProt Q8N4F7); chain LPTRSLSDNICAVCGQKIIVELDEEGLIENTYQLSCNHVFHEFCIRGWCIVGKKQTCPYCKEKVDLKRMIS
B10: RNF150 RING domain (UniProt Q9ULK6); chain DKETESDFDNCAVCIEGYKPNDVVRILPCRHLFHKSCVDPWLLDHRTCPMCKMNILKALGIP
Residues (chain): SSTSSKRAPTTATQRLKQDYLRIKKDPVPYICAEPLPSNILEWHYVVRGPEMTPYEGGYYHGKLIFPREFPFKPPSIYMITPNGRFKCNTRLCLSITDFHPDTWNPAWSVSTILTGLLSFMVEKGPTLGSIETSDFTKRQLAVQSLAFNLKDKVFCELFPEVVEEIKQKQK
Molecule | lacZ reporter activity
B1 (RFPL2 RING domain) | 0
B2 (RNF149 RING domain) | 0
SYEDKSNDFVCPICFDMIEEAYMTKCGHSFCYKCIHQSLEDNNRCPKCNYVVDNIDHLY (COP1 RING domain (UniProt Q8NHY2)) | 0
B3 (TRIM52 RING domain) | 0
ISNDSETLEECMVCSDMKRDTLFGPCGHIATCSLCSPRVKKCLICKEQVQSRTKIE (MIB1 RING domain (UniProt Q86YT6)) | 0
B4 (PHF7 RING domain) | 0
B5 (TRIM38 RING domain) | 0
B6 (TRIM55 RING domain) | 3080
B7 (PEX2 RING domain) | 0
B8 (NSMCE1 RING domain) | 2510
FLKKLEQSFMCVCCQELVYQPVTTECFHNVCKDCLQRSFKAQVFSCPACRHDLGQNYIMI (UHRF2 RING domain (UniProt Q96PU4)) | 2510
B9 (RNF175 RING domain) | 0
B10 (RNF150 RING domain) | 0

Repeated from above (series 1):
Variant | normalised enrichment score
L7Q | 0.615
K3N | 0.0997
N11Y | 0.529
R5M | 0.156
T1Y | 0.0673
K3Y | 0.438
G4S | -0.398
